Assay results of several laboratories.
Parts stem from different laboratories: compare values within a part only. Several values in a cell are separate wells, animals, samples, runs or records. Positions count from the first letter of the parent shown.
Sequence of UniProt P00519 (whole entry, unmodified, looked up): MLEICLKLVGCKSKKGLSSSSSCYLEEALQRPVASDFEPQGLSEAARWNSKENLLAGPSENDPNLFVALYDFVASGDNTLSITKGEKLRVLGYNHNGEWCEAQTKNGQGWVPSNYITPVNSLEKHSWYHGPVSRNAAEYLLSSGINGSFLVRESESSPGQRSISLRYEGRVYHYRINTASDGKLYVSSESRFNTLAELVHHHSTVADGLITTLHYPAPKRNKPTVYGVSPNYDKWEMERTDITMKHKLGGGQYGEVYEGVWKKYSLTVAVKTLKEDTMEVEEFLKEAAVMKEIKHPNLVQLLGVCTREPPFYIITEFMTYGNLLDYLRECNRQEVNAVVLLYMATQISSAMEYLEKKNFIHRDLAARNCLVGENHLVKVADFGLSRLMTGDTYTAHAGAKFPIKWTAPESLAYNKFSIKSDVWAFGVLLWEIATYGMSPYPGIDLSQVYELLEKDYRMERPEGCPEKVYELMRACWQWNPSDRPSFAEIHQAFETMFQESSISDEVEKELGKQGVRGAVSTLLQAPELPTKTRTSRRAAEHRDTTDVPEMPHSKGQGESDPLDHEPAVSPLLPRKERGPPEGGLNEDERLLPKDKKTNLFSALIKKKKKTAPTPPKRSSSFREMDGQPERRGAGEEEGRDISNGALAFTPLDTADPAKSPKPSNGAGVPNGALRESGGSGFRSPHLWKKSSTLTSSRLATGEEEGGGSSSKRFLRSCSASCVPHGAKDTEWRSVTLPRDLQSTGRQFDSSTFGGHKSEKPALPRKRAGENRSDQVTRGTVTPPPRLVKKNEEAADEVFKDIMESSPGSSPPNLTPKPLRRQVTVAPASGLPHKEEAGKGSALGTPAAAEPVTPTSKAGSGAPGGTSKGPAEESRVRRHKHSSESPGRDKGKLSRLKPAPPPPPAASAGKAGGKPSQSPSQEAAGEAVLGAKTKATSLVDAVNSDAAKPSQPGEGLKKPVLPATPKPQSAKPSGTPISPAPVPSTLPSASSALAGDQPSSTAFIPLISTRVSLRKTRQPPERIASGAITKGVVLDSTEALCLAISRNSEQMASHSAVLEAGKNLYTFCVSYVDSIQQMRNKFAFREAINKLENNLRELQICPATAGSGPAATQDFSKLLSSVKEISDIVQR

Series 1 — species: mouse; sample: microsomes or S9; concentration: 2 µM; time: 0.5 h; endpoint: remaining compound
COc1cc2c(cc1OC)C1(c3ccoc3)OC(=O)C(=O)N1CC2 (centres unmarked): 2.04%
Cc1ccc(-c2noc(=O)n2Cc2ccc(S(=O)(=O)N(C)C)cc2)cc1: 2.31%
CCOC(=O)C1=C(O)CN(Cc2ccc(F)cc2)C1=O: 85.8%

Series 2 — method: protein-binding microarray; molecule type: hairpin DNA; sample: in vitro; concentration: not given; baseline: not given; direction: higher = stronger binding; endpoint: median fluorescence
Target: Runt-related transcription factor 3, Runt domain (RUNX3, Homo sapiens, UniProt Q13761, residues 53-186)
Sequence of UniProt Q13761 (53-186, looked up): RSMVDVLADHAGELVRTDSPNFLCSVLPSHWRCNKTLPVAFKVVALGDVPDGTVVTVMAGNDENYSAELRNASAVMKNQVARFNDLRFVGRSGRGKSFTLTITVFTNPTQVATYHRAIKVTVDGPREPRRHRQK
Setting: whole hairpin DNA, median over replicate spots
CTCAGTTCTGCGGGCTGGACTCCTGTCCAGCCCGCAGAACTGAGACACTC (5mC at 33): 4420 a.u.
GAGGCCTGATGTGGTTGGCCTCCTGGCCAACCACATCAGGCCTCACACTC: 4720 a.u.
GAGGCCTGTCGCGGTTGGCGTCCTCGCCAACCGCGACAGGCCTCACACTC (5mC at 25): 6440 a.u.
CTCAGTTCTGCGGGCTGGACTCCTGTCCAGCCCGCAGAACTGAGACACTC: 4830 a.u.
GAGGCCTGTCGAGGTTGGCCTCCTGGCCAACCTCGACAGGCCTCACACTC: 5030 a.u.
GAGGCCTGTTGCGGTTGGCCTCCTGGCCAACCGCAACAGGCCTCACACTC (5mC at 12): 5860 a.u.
CTCAGTCGTGTGGGCTGGACTCCTGTCCAGCCCACACGACTGAGACACTC (5mC at 37): 4660 a.u.
CTCAGTTCTTTGGGCTGGACTCCTGTCCAGCCCAAAGAACTGAGACACTC: 3750 a.u.

Series 3 — Variant: H16M; method: DHFR PCA, deep sequencing; sample: yeast; baseline: wild-type fitted maximum; direction: higher = stronger binding; endpoint: relative binding score
Target: ABI1, truncated, D143A, DHFR fusion (Arabidopsis thaliana)
Setting: methotrexate growth selection, single substitutions
Starting sequence: PYL1, truncated, DHFR fusion (Arabidopsis thaliana); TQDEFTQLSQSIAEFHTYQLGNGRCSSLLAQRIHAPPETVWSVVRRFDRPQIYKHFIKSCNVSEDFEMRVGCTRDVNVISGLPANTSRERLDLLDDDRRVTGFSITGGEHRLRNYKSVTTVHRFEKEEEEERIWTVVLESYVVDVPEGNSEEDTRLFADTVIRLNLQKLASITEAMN
together with: (+)-ABA 4.8 µM: -6.25%
together with: (+)-ABA 0.11 µM: -4.87%
together with: (+)-ABA 200 µM: -11%
together with: (+)-ABA 0 µM: -0.196%
together with: (+)-ABA 0.0091 µM: -1%
together with: (+)-ABA 17 µM: 17.6%

Further values, each from its own experiment
Cn1cncc1[C@@](O)(COc1ccc(C#N)cc1-c1ccc(OC(F)(F)F)cc1)c1ccc(C#N)cc1
apoptotic cells (HEK293T; high-content imaging; 10 µM, 12 h): 34.2% and 22.7%

CN1CC[C@H](c2c(O)cc(O)c3c(=O)cc(-c4ccccc4Cl)oc23)[C@H](O)C1
log2 fold change (HuT78; RNA-seq, refers to: CDCA3; concentration not given; baseline: untreated control): -0.814

N#CC1(c2ccccn2)CCN(Cc2cc(C(=O)O)c(=O)n3ccccc23)CC1
remaining binding (Tyrosine-protein kinase ABL1, phosphorylated (ABL1, Homo sapiens, UniProt P00519, F317I); binding; 1 µM): 81%

Excerpt of the above (series 1):
CCOC(=O)C1=C(O)CN(Cc2ccc(F)cc2)C1=O: 85.8%
Cc1ccc(-c2noc(=O)n2Cc2ccc(S(=O)(=O)N(C)C)cc2)cc1: 2.31%
